Results of several laboratories.
Parts stem from different laboratories: compare values within a part only. Several values in a cell are separate wells, animals, samples, runs or records. pEC50: −log10 of the molar value.
Sequence of UniProt P35968 (whole entry, looked up): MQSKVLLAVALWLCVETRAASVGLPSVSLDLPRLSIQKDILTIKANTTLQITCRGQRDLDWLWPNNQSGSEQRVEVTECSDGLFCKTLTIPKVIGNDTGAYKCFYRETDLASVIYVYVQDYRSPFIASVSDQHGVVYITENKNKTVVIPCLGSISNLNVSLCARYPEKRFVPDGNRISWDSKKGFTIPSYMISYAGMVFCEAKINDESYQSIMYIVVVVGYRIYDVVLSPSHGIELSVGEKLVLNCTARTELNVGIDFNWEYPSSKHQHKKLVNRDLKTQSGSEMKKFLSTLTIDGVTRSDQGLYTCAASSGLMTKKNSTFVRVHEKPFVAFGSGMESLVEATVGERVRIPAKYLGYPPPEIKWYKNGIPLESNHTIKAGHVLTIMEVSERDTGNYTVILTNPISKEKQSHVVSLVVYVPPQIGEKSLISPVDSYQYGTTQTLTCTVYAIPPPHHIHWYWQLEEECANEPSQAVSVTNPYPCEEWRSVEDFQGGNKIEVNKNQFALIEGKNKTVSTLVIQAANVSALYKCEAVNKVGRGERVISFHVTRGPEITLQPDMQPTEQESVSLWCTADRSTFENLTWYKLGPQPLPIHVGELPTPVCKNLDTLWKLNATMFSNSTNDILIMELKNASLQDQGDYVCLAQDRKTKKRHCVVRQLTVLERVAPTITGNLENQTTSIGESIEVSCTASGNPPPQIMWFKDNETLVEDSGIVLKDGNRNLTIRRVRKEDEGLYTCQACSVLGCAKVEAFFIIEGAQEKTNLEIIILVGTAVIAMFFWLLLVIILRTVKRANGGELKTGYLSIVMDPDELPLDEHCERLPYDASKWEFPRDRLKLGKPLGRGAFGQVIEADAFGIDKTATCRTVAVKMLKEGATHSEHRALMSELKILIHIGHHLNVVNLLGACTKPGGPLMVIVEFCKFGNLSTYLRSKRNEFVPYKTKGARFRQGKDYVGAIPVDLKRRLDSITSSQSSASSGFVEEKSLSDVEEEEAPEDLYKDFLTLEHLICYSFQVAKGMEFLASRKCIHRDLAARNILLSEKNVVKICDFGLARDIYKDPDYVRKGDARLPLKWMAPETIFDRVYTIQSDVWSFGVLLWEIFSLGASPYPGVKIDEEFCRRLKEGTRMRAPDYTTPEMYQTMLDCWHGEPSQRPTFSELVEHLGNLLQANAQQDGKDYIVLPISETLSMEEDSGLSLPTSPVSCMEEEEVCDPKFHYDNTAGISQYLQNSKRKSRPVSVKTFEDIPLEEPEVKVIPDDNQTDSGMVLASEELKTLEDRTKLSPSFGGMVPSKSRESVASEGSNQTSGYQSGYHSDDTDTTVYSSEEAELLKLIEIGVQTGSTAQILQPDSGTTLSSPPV
Sequence of UniProt P57078 (whole entry, looked up): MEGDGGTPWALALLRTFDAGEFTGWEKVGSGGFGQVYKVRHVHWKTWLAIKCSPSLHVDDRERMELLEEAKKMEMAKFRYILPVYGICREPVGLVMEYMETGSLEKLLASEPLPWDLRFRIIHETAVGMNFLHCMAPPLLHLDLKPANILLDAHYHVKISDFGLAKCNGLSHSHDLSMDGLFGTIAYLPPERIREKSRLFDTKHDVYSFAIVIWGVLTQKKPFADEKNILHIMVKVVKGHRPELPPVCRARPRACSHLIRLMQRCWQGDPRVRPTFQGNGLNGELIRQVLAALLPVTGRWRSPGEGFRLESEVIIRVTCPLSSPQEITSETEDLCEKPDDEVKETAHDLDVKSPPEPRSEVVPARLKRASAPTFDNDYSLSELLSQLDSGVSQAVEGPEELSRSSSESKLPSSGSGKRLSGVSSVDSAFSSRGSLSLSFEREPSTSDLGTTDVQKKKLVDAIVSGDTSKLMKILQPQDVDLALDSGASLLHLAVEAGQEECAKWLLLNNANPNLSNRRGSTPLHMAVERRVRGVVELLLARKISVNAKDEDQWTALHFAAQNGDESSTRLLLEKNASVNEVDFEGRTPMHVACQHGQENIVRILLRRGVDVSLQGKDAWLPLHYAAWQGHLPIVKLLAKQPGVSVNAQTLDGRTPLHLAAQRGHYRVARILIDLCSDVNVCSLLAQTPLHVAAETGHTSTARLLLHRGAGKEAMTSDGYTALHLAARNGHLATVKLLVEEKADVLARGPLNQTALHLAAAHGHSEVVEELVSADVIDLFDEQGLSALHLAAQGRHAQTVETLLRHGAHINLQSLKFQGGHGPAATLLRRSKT
Sequence of UniProt P52564 (whole entry, looked up): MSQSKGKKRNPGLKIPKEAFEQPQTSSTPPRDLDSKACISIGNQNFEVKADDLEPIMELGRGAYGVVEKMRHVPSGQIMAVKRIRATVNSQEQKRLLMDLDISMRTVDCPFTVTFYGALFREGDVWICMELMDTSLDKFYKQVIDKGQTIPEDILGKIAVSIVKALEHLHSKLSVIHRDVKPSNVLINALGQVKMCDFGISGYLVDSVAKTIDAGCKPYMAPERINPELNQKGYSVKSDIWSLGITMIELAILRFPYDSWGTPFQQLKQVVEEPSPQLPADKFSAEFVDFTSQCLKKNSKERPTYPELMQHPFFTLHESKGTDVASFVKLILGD
Sequence of UniProt P10721 (whole entry, unmodified, looked up): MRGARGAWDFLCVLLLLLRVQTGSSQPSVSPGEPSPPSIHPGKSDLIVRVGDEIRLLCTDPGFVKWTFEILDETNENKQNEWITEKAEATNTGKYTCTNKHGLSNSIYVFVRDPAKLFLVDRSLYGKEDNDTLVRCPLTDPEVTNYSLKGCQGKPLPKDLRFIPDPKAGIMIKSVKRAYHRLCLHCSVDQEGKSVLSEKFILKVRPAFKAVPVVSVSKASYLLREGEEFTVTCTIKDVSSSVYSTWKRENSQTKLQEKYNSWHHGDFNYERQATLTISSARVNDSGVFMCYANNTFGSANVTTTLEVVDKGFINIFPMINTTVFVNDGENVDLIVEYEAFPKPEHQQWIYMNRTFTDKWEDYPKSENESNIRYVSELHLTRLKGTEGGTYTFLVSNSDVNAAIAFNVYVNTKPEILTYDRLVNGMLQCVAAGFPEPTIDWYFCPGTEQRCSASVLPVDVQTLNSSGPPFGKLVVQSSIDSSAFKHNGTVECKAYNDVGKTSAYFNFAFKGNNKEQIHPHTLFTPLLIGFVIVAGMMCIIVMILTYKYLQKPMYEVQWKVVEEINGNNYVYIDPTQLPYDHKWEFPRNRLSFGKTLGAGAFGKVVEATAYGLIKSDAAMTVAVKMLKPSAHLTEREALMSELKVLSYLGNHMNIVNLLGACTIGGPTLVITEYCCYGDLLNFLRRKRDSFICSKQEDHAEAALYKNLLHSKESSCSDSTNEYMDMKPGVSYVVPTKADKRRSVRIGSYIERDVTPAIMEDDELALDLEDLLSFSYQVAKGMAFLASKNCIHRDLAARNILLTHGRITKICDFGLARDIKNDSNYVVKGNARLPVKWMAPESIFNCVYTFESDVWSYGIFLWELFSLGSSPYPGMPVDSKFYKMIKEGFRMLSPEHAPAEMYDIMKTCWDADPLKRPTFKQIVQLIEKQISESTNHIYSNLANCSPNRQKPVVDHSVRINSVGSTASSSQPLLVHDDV
Sequence of UniProt P51957 (whole entry, looked up): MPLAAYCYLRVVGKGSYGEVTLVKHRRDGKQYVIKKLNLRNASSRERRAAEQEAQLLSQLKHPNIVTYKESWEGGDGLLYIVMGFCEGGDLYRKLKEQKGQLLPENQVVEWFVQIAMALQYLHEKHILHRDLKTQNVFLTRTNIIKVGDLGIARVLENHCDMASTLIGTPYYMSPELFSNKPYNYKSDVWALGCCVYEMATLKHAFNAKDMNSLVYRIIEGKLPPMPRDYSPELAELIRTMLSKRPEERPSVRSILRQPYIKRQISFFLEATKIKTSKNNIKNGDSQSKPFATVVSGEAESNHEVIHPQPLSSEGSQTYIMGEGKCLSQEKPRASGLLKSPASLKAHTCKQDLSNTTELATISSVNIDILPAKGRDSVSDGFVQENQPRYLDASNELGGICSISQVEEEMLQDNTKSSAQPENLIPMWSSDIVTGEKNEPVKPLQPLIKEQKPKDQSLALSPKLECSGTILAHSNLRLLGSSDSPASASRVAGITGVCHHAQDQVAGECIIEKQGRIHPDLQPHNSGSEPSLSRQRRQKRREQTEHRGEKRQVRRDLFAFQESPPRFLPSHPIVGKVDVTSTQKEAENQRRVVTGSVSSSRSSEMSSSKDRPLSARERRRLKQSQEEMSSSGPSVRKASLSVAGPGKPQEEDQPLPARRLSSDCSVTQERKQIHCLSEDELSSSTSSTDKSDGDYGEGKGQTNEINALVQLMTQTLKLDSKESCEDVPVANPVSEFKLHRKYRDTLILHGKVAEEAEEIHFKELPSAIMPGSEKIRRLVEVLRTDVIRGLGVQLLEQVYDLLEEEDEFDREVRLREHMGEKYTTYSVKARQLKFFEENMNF
Sequence of UniProt Q14164 (whole entry, looked up): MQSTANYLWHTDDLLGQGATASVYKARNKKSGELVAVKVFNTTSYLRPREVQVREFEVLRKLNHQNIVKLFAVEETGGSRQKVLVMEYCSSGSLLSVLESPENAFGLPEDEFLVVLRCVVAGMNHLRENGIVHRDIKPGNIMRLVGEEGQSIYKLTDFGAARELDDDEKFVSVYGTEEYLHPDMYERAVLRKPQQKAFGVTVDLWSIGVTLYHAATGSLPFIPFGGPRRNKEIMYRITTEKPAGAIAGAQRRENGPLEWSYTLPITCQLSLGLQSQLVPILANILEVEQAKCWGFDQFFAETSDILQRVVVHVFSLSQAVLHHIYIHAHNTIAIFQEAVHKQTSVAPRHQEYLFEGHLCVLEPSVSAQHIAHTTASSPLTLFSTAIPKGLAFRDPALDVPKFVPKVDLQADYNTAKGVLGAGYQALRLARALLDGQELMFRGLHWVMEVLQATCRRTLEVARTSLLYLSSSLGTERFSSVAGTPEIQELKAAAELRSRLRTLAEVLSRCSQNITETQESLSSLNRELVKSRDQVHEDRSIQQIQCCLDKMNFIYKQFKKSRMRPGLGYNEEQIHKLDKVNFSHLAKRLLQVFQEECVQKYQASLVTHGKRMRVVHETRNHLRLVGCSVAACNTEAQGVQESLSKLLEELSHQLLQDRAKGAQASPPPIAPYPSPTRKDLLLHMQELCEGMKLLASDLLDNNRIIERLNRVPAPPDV

Study 1 — species: mouse; medium: microsomes or S9; concentration: 2 µM; time: 0.5 h
The remaining compound of CCCN(C(=O)c1cc(S(=O)(=O)N2CCc3ccccc32)cn1C)c1ccccc1OC is reported as less than 1%.
Cc1n[nH]cc1CNC1(Cc2ccc(Br)cc2)CCCCC1 has a remaining compound of 59.9%.
For CCc1ccccc1NC(=O)CN(C)C(=O)C1CCN(c2cnn(Cc3ccccc3)c(=O)c2)C1 (stereo not drawn), the remaining compound was 3.89%.
CCNc1nc(NNC(=O)CNc2ccccc2)nc(NC(C)C)n1 gave a remaining compound of 18.3%.

Study 2 — target: panel of 300 human kinases; concentration: 0.5 µM; reading: higher = more selective
Oc1ccc(Nc2nc(-c3ccc(Cl)cc3)cs2)cc1 gave a Gini score of 0.73.
CC[n+]1c(/C=C/N(C)c2ccccc2)n(-c2ccccc2)c2ccc(-c3nc4ccccc4s3)cc21 has a Gini score of 0.68.
C[C@@H]1CCN(C(=O)CC#N)C[C@@H]1N(C)c1ncnc2[nH]ccc12 gave a Gini score of 0.73.

Study 3 — observed: cell-free assay; technique: competition with immobilised ligand; concentration: 1 µM
SMILES: COc1cccc(CNC(=O)c2nc3scc(COCc4ccc(C(=O)O)cc4)c3c(=O)[nH]2)c1
EGFR (Homo sapiens, UniProt P00533, del747-752/P753S) — remaining binding: 66.1%.
For KDR (Homo sapiens, UniProt P35968): remaining binding read 70%.
The remaining binding was 100% (MAP2K6 (Homo sapiens, UniProt P52564)).
NEK4 (Homo sapiens, UniProt P51957) — remaining binding: 83.8%.
FLT3 (Homo sapiens, UniProt P36888, ITD) — remaining binding: 93.7%.
The remaining binding was 80.9% (Aurora kinase A (AURKA, Homo sapiens, UniProt O14965)).
For FLT3 (Homo sapiens, UniProt P36888, K663Q): remaining binding read 93%.
STK39 (Homo sapiens, UniProt Q9UEW8) — remaining binding: 100%.
IKBKE (Homo sapiens, UniProt Q14164) — remaining binding: 83.9%.
FLT3 (Homo sapiens, UniProt P36888) — remaining binding: 85%.
DSTYK (Homo sapiens, UniProt Q6XUX3) — remaining binding: 54.5%.
RIPK4 (Homo sapiens, UniProt P57078) — remaining binding: 67.1%.
It gave 59% for remaining binding (KIT (Homo sapiens, UniProt P10721, D816H)).
For CAMK2B (Homo sapiens, UniProt Q13554): remaining binding read 96.8%.

Study 4 — cell line: mouse MPNST tumor cells; technique: high-content nuclear imaging; measured: cell number; concentration: 10 µM; time: 12 h; notes: mean of 2 replicates; reference: plate mean; reading: higher = more cells
The nuclei count of CN1C(CCl)Nc2cc(Cl)c(S(N)(=O)=O)cc2S1(=O)=O (stereo not drawn) is reported as -0.368 z-score.
O=C(O)c1ccc(S(=O)(=O)NC2CCCCC2)cc1 gave a nuclei count of 0.0725 z-score.
CC[N+](CC)(CC)CCC(O)(c1ccccc1)C1CCCCC1 (stereo not drawn) has a nuclei count of 0.74 z-score.
N#Cc1cc(F)cc(-c2nc(-c3ccc(F)cn3)no2)c1 has a nuclei count of 1.62 z-score.

Study 5 — technique: PRP chromatography estimate; medium: 1,9-decadiene/PBS; pH: 7.4
The logD of CC(C)C[C@@H]1NC(=O)[C@H](CC(C)C)NC(=O)[C@@H](CC(C)C)NC(=O)[C@H](C)NC(=O)[C@@H](Cc2cscn2)NC(=O)[C@@H](CC(C)C)NC(=O)[C@H](C)NC1=O is reported as -1.19.
CC(C)C[C@@H]1NC(=O)[C@H](CCC(=O)N2CCCC2)NC(=O)[C@H](CC(C)C)NC(=O)[C@@H](Cc2cscn2)NC(=O)[C@H](CC(C)C)NC(=O)[C@@H](CC(C)C)NC(=O)[C@H](CC(C)C)NC1=O has a logD of 0.0148.
With CC(C)C[C@@H]1NC(=O)[C@H](C)NC(=O)[C@H](C)NC(=O)[C@H](CCC(=O)N2CCCC2)NC(=O)[C@H](CC(C)C)NC(=O)[C@H](CC(C)C)NC(=O)[C@@H](C(C)C)NC1=O the logD was -2.6.
For CC(C)C[C@@H]1NC(=O)[C@H](C)NC(=O)[C@H](CCC(=O)N2CCCC2)NC(=O)[C@H](CC(C)C)NC(=O)[C@@H](Cc2cscn2)NC(=O)[C@H](CC(C)C)NC(=O)[C@@H](CC(C)C)NC1=O, the logD was -1.7.

Other studies, line by line
CC(C)S(=O)(=O)c1ccc2nccc(Nc3ccc4scnc4c3)c2c1 gave a pEC50 of 5.60 and 5.40 and 5.36 (L929; TNF-α-induced necroptosis, inhibitor, CCK-8; with: TNF-α, zVAD).
